Experimental data collected from several papers.
Lines come from different studies, so protocols differ. ± gives the spread as reported.
Ahr: Aryl hydrocarbon receptor (Ahr, Mus musculus, UniProt P30561)
UniProt P30561, sequence (whole entry, looked up): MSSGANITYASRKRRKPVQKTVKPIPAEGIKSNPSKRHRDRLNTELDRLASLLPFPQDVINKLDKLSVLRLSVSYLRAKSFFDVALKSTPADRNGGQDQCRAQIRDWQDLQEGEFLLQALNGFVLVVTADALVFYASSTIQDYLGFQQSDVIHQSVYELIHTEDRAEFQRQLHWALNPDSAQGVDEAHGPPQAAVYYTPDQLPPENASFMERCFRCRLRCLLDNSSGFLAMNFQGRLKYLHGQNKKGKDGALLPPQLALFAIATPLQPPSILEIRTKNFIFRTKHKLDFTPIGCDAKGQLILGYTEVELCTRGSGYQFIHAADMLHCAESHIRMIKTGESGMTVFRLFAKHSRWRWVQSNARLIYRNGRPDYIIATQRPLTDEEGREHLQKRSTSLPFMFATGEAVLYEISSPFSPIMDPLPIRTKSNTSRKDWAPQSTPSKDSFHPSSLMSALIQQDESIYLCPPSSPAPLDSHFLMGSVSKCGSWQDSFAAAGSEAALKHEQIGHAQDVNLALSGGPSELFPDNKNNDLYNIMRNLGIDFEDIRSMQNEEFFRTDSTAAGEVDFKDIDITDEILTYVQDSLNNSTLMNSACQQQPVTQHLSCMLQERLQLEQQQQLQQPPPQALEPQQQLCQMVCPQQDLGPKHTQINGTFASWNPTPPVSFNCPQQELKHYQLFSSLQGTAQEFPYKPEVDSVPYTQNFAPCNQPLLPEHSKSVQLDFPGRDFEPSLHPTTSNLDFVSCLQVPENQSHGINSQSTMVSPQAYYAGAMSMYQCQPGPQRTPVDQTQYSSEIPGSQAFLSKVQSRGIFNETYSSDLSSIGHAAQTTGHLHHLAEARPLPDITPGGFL
Abcb1a N83Q/N87Q/N90Q: ATP-dependent translocase ABCB1 (Abcb1a, Mus musculus, UniProt P21447, N83Q/N87Q/N90Q)
UniProt P21447, sequence (whole entry, unmodified, looked up): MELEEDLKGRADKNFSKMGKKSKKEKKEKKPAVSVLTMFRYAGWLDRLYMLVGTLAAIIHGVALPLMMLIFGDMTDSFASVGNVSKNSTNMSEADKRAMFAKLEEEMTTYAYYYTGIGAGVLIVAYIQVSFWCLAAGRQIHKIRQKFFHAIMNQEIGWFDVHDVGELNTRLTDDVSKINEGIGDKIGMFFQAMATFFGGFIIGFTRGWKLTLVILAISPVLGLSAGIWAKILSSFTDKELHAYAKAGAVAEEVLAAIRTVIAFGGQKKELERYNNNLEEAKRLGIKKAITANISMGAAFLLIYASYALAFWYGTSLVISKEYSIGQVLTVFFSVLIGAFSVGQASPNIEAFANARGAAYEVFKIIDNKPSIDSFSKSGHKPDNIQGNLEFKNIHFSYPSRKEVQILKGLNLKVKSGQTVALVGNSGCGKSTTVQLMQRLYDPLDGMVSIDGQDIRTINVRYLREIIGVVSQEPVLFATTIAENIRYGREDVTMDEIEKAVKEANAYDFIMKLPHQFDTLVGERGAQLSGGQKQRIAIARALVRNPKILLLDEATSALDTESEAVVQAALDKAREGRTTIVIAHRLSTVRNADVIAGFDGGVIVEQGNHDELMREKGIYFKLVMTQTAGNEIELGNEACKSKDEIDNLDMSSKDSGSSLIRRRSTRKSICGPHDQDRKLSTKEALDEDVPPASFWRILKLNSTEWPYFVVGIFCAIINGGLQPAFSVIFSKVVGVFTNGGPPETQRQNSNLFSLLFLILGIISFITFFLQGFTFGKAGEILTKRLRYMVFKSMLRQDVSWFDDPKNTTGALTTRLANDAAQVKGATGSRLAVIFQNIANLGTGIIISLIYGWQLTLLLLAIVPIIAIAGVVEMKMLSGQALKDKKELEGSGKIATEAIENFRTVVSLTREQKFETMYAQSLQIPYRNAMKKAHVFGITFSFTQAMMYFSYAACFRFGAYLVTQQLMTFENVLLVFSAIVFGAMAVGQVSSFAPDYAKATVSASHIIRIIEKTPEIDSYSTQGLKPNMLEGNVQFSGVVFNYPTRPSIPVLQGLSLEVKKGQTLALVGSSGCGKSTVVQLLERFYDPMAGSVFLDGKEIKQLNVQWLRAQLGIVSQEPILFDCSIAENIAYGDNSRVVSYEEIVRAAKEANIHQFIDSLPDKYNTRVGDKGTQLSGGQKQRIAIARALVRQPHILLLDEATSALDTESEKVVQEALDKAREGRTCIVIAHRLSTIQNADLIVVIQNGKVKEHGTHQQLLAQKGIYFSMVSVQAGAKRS
CYP2B6: Cytochrome P450 2B6 (CYP2B6, Homo sapiens, UniProt P20813)
UniProt P20813, sequence (whole entry, looked up): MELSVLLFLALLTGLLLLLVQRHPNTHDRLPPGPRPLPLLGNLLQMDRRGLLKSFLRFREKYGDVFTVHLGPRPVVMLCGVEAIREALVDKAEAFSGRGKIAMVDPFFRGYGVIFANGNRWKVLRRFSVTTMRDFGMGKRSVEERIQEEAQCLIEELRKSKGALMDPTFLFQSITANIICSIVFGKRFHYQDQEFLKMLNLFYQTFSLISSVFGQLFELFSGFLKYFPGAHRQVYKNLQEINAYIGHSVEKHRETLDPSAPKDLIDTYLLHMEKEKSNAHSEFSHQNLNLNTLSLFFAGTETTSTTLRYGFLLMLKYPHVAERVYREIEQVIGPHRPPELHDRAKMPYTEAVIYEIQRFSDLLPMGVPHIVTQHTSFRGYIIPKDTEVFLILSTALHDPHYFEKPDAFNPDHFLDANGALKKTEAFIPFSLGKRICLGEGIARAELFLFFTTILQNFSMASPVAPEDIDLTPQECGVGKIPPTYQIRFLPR
KCNH2: Voltage-gated inwardly rectifying potassium channel KCNH2 (KCNH2, Homo sapiens, UniProt Q12809)
UniProt Q12809, sequence (whole entry, looked up): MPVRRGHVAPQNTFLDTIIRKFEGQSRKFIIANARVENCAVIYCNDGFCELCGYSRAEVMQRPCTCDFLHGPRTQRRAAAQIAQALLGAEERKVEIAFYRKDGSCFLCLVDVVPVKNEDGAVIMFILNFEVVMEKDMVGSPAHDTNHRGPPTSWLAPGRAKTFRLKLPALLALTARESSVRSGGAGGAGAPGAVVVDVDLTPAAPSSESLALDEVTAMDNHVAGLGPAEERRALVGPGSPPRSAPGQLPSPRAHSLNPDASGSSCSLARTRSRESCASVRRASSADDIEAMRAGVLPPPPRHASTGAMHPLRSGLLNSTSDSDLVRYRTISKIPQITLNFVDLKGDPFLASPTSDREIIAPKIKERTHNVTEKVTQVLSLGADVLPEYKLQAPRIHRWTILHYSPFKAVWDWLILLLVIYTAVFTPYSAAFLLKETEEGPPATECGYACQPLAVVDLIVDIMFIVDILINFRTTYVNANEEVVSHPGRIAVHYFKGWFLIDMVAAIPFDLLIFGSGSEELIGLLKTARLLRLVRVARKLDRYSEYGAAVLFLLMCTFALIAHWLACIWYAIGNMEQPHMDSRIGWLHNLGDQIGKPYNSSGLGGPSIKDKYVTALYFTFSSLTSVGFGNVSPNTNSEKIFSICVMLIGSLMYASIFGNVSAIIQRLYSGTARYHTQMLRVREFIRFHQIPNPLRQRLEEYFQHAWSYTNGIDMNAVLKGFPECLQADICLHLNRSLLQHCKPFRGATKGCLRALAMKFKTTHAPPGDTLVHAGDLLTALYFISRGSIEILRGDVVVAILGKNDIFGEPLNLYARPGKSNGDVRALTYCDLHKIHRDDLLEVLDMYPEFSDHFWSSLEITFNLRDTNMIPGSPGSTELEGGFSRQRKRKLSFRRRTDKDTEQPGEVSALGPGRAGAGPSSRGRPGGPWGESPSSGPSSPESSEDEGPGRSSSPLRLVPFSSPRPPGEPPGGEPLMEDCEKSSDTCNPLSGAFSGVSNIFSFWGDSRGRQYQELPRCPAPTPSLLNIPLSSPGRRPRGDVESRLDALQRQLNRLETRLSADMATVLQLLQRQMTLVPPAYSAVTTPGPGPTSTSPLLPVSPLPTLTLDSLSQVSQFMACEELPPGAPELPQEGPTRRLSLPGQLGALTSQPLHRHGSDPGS
CYP1A1: Cytochrome P450 1A1 (CYP1A1, Homo sapiens, UniProt P04798)
UniProt P04798, sequence (whole entry, looked up): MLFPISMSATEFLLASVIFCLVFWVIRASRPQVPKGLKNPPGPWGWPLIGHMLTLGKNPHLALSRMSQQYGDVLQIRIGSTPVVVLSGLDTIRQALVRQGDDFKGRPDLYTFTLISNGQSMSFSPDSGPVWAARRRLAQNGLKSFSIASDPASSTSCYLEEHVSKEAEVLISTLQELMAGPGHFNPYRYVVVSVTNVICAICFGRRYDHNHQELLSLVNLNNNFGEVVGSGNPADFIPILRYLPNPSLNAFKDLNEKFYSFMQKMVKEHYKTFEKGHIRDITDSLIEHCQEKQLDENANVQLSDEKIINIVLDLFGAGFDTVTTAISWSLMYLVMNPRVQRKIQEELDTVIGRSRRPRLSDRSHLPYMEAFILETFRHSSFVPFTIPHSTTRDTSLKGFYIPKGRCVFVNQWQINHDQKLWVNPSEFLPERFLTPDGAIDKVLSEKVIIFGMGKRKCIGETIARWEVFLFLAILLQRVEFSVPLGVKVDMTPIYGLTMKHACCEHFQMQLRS
CYP2D6: Cytochrome P450 2D6 (CYP2D6, Homo sapiens, UniProt P10635)
UniProt P10635, sequence (whole entry, looked up): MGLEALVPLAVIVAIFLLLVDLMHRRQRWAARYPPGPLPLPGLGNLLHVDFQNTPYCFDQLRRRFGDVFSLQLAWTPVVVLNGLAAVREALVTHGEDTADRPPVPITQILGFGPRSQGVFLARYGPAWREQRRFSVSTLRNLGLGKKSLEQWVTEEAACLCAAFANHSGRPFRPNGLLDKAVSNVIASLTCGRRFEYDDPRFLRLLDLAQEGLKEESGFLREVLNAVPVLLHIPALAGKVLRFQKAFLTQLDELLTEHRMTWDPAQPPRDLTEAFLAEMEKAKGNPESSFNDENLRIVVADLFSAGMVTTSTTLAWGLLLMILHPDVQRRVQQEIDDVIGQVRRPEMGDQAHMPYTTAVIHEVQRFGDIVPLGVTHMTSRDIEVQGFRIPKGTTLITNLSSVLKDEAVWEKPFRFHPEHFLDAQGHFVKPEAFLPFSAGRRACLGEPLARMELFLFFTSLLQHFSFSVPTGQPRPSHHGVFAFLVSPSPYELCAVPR

Substance | tested on | assay | test system | conditions | endpoint | value
Clc1ccc(-c2ccc(Cl)c(Cl)c2Cl)c(Cl)c1Cl | Ahr | binding, competitor |  | in vitro expressed receptor, with: [3H]TCDD | IC50 | 6.31 µM
Clc1ccc(-c2c(Cl)c(Cl)cc(Cl)c2Cl)c(Cl)c1 | Abcb1a N83Q/N87Q/N90Q | ATPase activity, inhibitor |  | with: 100 µM verapamil | IC50 | 23.6 µM
Nonylphenol | CYP2B6 | enzyme activity, inhibitor, Vivid fluorescent |  |  | IC50 | 0.221 µM
Clc1cc(-c2cc(Cl)c(Cl)c(Cl)c2)cc(Cl)c1Cl | Ahr | binding, competitor |  | in vitro expressed receptor, with: [3H]TCDD | IC50 | 0.0631 µM
C=C(C[C@@]12C[C@@H](C)C[C@@H](O1)[C@H]1O[C@]3(C[C@H]1O2)NC[C@H](C)C[C@@H]3C)[C@H]1O[C@@](O)([C@@H](O)[C@@H]2C[C@H]3O[C@@]4(CC[C@]5(CC(C)=C[C@@H](/C=C/CCC(=O)O)O5)O4)[C@H](C)C[C@H]3O2)[C@H](C)C[C@@H]1C | KCNH2 | ion current, inhibitor, patch clamp | HEK293 expressing hERG | room temperature, peak tail current | IC50 | 0.64 µM
O=C(O)C(F)(F)C(F)(F)C(F)(F)C(F)(F)C(F)(F)F | CYP2B6 | enzyme activity, inhibitor | Supersomes | with: 7-ethoxy-4-trifluoromethylcoumarin substrate | IC50 | > 100 µM
Clc1cc(Cl)c(-c2cc(Cl)c(Cl)cc2Cl)c(Cl)c1 | Abcb1a N83Q/N87Q/N90Q | ATPase activity, inhibitor |  | with: 100 µM verapamil | IC50 | 14.3 µM
CN[C@@](C)(C[18F])C(=O)O |  |  | SCID mouse DU-145 xenograft, muscle | 30 min, post injection | tissue uptake | 0.9 ± 0.2 %ID/g
Clc1cccc(Cl)c1-c1c(Cl)c(Cl)c(Cl)c(Cl)c1Cl | Abcb1a N83Q/N87Q/N90Q | ATPase activity, inhibitor |  | with: 100 µM verapamil | IC50 | 6.9 µM
C#CCOc1ccc2oc(-c3ccccc3)cc(=O)c2c1 | CYP1A1 | enzyme activity, inhibitor, fluorescence |  |  | IC50 | 0.48 µM
COc1ccc2c(c1OC)C(=O)O[C@@H]2[C@H]1c2cc3c(cc2CCN1C)OCO3 | SLC22A1 (Homo sapiens, UniProt O15245) | inhibitor |  |  | IC50 | < 10 µM
O=C(Cc1ccccc1Nc1c(Cl)cccc1Cl)Oc1ccc(-c2cc(=S)ss2)cc1 | CYP1A1 | enzyme activity, inhibitor, fluorescence |  |  | IC50 | 0.05 µM
COc1ccc([C@@H]2CC(=O)c3c(O)cc(O[C@@H]4O[C@H](CO[C@@H]5O[C@@H](C)[C@H](O)[C@@H](O)[C@H]5O)[C@@H](O)[C@H](O)[C@H]4O)cc3O2)cc1O | SLCO2B1 (Homo sapiens, UniProt O94956) | transporter uptake, inhibitor |  | pH 6 | IC50 | > 300 µM
C#CCOc1cccc(-c2cc(=O)c3ccccc3o2)c1 | CYP1A1 | enzyme activity, inhibitor, fluorescence |  |  | IC50 | 0.02 µM
C[C@H](NC(C)(C)C)[C@@H](O)c1cccc(Cl)c1 | CYP2D6 | enzyme activity, inhibitor | human suspension hepatocytes | 30 min, protein-free buffer, media concentrations, with: dextromethorphan 1 µM | IC50 | 8.7 µM
Clc1cc(Cl)c(-c2c(Cl)cccc2Cl)c(Cl)c1Cl | Abcb1a N83Q/N87Q/N90Q | ATPase activity, inhibitor |  | with: 100 µM verapamil | IC50 | 4.4 µM
O=S(=O)(O)C(F)(F)C(F)(F)C(F)(F)C(F)(F)C(F)(F)C(F)(F)C(F)(F)C(F)(F)F | CYP2B6 | enzyme activity, inhibitor, fluorescence |  |  | IC50 | 30.6 µM
C[C@@H]1NC(C)(C)CO[C@@]1(O)c1cccc(Cl)c1 | CYP2D6 | enzyme activity, inhibitor |  |  | IC50 | 14 µM
C#CCOc1cccc2oc(-c3ccccc3)cc(=O)c12 | CYP1A1 | enzyme activity, inhibitor, fluorescence |  |  | IC50 | 1.6 µM
O=S(=O)(O)C(F)(F)C(F)(F)C(F)(F)C(F)(F)F | Cytochrome P450 2E1 (CYP2E1, Homo sapiens, UniProt P05181) | enzyme activity, inhibitor |  | Supersomes, with: 7-MFC substrate | IC50 | > 100 µM
Clc1ccc(-c2ccc(Cl)c(Cl)c2)cc1Cl | Ahr | binding, competitor |  | in vitro expressed receptor, with: [3H]TCDD | IC50 | 0.224 µM
O=c1cc(-c2ccccc2)oc2ccc(O)cc12 | CYP1A1 | enzyme activity, inhibitor, fluorescence |  |  | IC50 | 12.4 µM
O=C(O)C(F)(OC(F)(F)C(F)(F)C(F)(F)F)C(F)(F)F (stereo not drawn) | CYP2B6 | enzyme activity, inhibitor | Supersomes | with: 7-ethoxy-4-trifluoromethylcoumarin substrate | IC50 | > 100 µM
CN(C)c1ccc(C(=C2C=CC(=[N+](C)C)C=C2)c2ccccc2)cc1 | KCNH2 | thallium influx, inhibitor, confirmation | hERG-transduced cells |  | IC50 | 4.8 ± 0.8 µM
O=c1cc(-c2ccccc2O)oc2ccccc12 | CYP1A1 | enzyme activity, inhibitor, fluorescence |  |  | IC50 | 17.7 µM
Clc1cc(-c2cc(Cl)c(Cl)c(Cl)c2)cc(Cl)c1Cl | Abcb1a N83Q/N87Q/N90Q | ATPase activity, inhibitor |  | with: 100 µM verapamil | IC50 | 9.7 µM
Clc1ccc(-c2ccc(Cl)c(Cl)c2Cl)cc1Cl | Ahr | binding, competitor |  | in vitro expressed receptor, with: [3H]TCDD | IC50 | 5.01 µM
Clc1cc(Cl)cc(-c2c(Cl)cc(Cl)c(Cl)c2Cl)c1 | Abcb1a N83Q/N87Q/N90Q | ATPase activity, inhibitor |  | with: 100 µM verapamil | IC50 | 43.2 µM
C#CCOc1ccc(-c2cc(=O)c3ccccc3o2)cc1 | CYP1A1 | enzyme activity, inhibitor, fluorescence |  |  | IC50 | 0.65 µM
CCCCCCCC[N+](CCCCCCCC)(CCCCCCCC)CCCCCCCC | KCNH2 | thallium influx, inhibitor, primary qHTS | hERG-transduced cells | two runs | IC50 | 0.38 ± 0.03 µM

Some of these lines once more:
Substance | tested on | assay | test system | conditions | endpoint | value
C#CCOc1cccc(-c2cc(=O)c3ccccc3o2)c1 | CYP1A1 | enzyme activity, inhibitor, fluorescence |  |  | IC50 | 0.02 µM
O=S(=O)(O)C(F)(F)C(F)(F)C(F)(F)C(F)(F)F | Cytochrome P450 2E1 (CYP2E1, Homo sapiens, UniProt P05181) | enzyme activity, inhibitor |  | Supersomes, with: 7-MFC substrate | IC50 | > 100 µM
C#CCOc1ccc2oc(-c3ccccc3)cc(=O)c2c1 | CYP1A1 | enzyme activity, inhibitor, fluorescence |  |  | IC50 | 0.48 µM
